Experimental data pooled from the literature.
Each numbered part is a random draw from the data of one study; scales do not carry over between parts. Substitutions count along the parent as printed.

Series 1
Target: HLA class I histocompatibility antigen, A alpha chain, allele A*80:01 (Homo sapiens, UniProt P04439)
Effect on: peptide-MHC binding
Form: peptide
Tested at: concentration not given
Measurement: binding
NRDGDSYYY: inactive
KTRMEDYYL: inactive
VQPWLMVDV: inactive
HHYSQAAVL: inactive

Series 2
Target: CCND2, cyclin fold, Cln2 fusion (human)
Technique: yeast growth competition, sequencing
Sample: yeast
Setting: strong parent motif
Reference: not given
Reading: higher = stronger binding
Measurement: normalised enrichment score
Starting sequence: viral docking peptide; YKVKRRLVFGADD
R6W: -0.273
V8M: 0.764
R6V: 0.481
A11H: 1.18
F9S: 0.145
F9G: 0.028
A11F: 1.24
K4C: 2.2
G10F: 0.586
R5C: 0.32
A11L: 1.37
K4T: 0.429
R6Y: 0.0208
R5H: 0.285
R5A L7A: 0.137

Series 3
Target: Runt-related transcription factor 1, full length (RUNX1, Homo sapiens, UniProt Q01196-8, residues 1-480)
Technique: protein-binding microarray
Form: hairpin DNA
Sample: in vitro
Tested at: not given
Setting: whole hairpin DNA, median over replicate spots
Reference: not given
Reading: higher = stronger binding
Measurement: median fluorescence
CTCAGTTCTGTGGGCGGGACTCCTGTCCCGCCCACAGAACTGAGACACTC (5mC at 29): 2430 a.u.
GAGGCCCAACGGCAACAGCCTCCTGGCTGTTGCCGTTGGGCCTCACACTC (5mC at 34): 1690 a.u.
GAGGCCTGTTGTGGTTGGCCTCCTGGCCAACCACAACAGGCCTCACACTC (5mC at 32): 1770 a.u.
GAGGCCTCTCGCGGTTGGCCTCCTGGCCAACCGCGAGAGGCCTCACACTC (5mC at 8): 2530 a.u.
GAGGCCTGTTGCGGTTGGCCTCCTGGCCAACCGCAACAGGCCTCACACTC (5mC at 31): 1720 a.u.
GAGGCCTGTCGCGGTTGGCCTCCTGGCCAACCGCGACAGGCCTCACACTC (5mC at 10 32): 1880 a.u.
GAGGCCCAACCGCACGAGCCTCCTGGCTCGTGCGGTTGGGCCTCACACTC: 3650 a.u.
GAGGCCTGATGCGGTTGGCCTCCTGGCCAACCGCATCAGGCCTCACACTC: 3330 a.u.

Series 4
Target: Interferon regulatory factor 7, full length, phosphomimetic (IRF7, Homo sapiens, UniProt Q92985, residues 1-503, S471D/S472D/S475D/S476D/S477D/S483D/S484D/S487D)
Technique: protein-binding microarray
Form: double-stranded DNA, one strand shown
Sample: in vitro
Tested at: 2200 nM top
Setting: 60-bp whole probe
Added: salmon DNA 0.4 mg/ml
Reference: random background probes
Reading: higher = stronger binding
Measurement: fitted relative affinity
Constant ends, left off below: GCCTAGCAC … GTCTTGATTCGCTTGACGCTGCTG
Residues (chain): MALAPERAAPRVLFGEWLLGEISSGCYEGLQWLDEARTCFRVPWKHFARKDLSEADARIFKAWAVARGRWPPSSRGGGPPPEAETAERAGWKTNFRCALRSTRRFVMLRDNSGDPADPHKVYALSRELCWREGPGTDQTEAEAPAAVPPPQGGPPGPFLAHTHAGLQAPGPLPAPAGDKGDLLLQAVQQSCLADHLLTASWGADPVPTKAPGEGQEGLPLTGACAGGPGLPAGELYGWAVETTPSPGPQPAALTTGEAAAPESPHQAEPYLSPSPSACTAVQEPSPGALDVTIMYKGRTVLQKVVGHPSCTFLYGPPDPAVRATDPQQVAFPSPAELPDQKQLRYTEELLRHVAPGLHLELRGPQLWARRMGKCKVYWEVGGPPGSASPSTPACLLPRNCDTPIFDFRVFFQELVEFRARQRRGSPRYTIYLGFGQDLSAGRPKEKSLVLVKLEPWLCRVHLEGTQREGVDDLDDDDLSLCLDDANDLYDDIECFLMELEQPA
TATGTTCCCTATTTAAGGCAGTGCTAG: 1.71 z-score
GACGGTTTCGACTTTCGGTACGTGCTA: 9.16 z-score
TTTGGACACAGACACAGGCCGTGCTAG: -0.308 z-score
GAAGGTCTCCTACTGCTGACGTGCTAG: 0.154 z-score
GGAGCGCCAGGCCCCGGCAGGTGCTAG: -1.56 z-score
TTAGGACTGGATTTTCGGTTAGTGCTA: 3.71 z-score
CCTAATCTCAGCCTCCGTCAGTGCTAG: 0.956 z-score
GACGGTTTGCTTATCCTGACGTGCTAG: 1.61 z-score

Some of these lines once more (series 2):
V8M: 0.764
R6V: 0.481
A11H: 1.18
